{"data": "Published values of several laboratories", "note": "Parts stem from different laboratories: compare values within a part only. Changes are numbered by the printed parent chain."}
{"data": "Set 1", "target": "Sal-like protein 4, full length isoform B (SALL4, Homo sapiens, UniProt Q9UJQ4-2, residues 1-616)", "method": "universal PBM", "form": "double-stranded DNA, one strand shown", "medium": "in vitro", "tested at": "not given", "notes": "8-mer, flanks averaged, mean of replicates", "reading": "higher = stronger binding"}
{"Strand": "ACTACGCG", "E-score": -0.117}
{"Strand": "ACAATGTC", "E-score": 0.0619}
{"Strand": "ATAACCAG", "E-score": 0.248}
{"Strand": "ACGTTCAT", "E-score": 0.149}
{"Strand": "TTTGAAAA", "E-score": 0.34}
{"Strand": "CGAAGAGC", "E-score": -0.143}
{"Strand": "AGGCTACA", "E-score": -0.0869}
{"Strand": "CGCTGACC", "E-score": -0.133}
{"Strand": "AAAGGCAC", "E-score": -0.0107}
{"Strand": "CACGGGCG", "E-score": -0.335}
{"Strand": "AGGTGGTA", "E-score": 0.052}
{"Strand": "CGACTACC", "E-score": -0.231}
{"Strand": "CATCCAAA", "E-score": 0.00466}
{"Strand": "GGATTCCA", "E-score": 0.0227}
{"Strand": "CTATCACA", "E-score": 0.145}
{"Strand": "CACCACGG", "E-score": -0.278}
{"Strand": "AAGCTCTG", "E-score": -0.14}
{"data": "Set 2", "target": "ABI1, truncated, D143A, DHFR fusion (Arabidopsis thaliana)", "method": "DHFR PCA, deep sequencing", "medium": "yeast", "notes": "methotrexate growth selection, single substitutions", "with": "(+)-ABA 200 µM", "baseline": "wild-type fitted maximum", "reading": "higher = stronger binding", "starting sequence": "PYL1, truncated, DHFR fusion (Arabidopsis thaliana); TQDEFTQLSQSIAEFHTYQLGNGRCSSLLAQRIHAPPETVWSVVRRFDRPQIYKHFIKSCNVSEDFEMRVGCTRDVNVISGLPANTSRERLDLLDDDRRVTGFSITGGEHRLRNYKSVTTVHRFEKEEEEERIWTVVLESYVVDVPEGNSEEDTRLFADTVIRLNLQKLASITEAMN"}
{"Change": "G81T", "relative binding score": "51.8%"}
{"Change": "T17S", "relative binding score": "98.3%"}
{"Change": "T17N", "relative binding score": "88.9%"}
{"Change": "E129H", "relative binding score": "110%"}
{"Change": "V142N", "relative binding score": "80.7%"}
{"Change": "K58D", "relative binding score": "89.4%"}
{"Change": "E38T", "relative binding score": "89.6%"}
{"Change": "R113Y", "relative binding score": "93.5%"}
{"Change": "E139D", "relative binding score": "14.6%"}
{"Change": "V145I", "relative binding score": "99.6%"}
{"Change": "L82G", "relative binding score": "52%"}
{"Change": "A13D", "relative binding score": "98.3%"}
{"Change": "D92M", "relative binding score": "71.3%"}
{"Change": "T135F", "relative binding score": "-3.3%"}
{"Change": "S117M", "relative binding score": "9.08%"}
{"Change": "Q31Y", "relative binding score": "71.4%"}
{"data": "Set 3", "target": "Interferon regulatory factor 5, full length, phosphomimetic (IRF5, Homo sapiens, UniProt Q13568-2, residues 1-514, S451D/S453D/S456D/S462D)", "method": "protein-binding microarray", "form": "double-stranded DNA, one strand shown", "medium": "in vitro", "tested at": "940 nM top", "notes": "60-bp whole probe", "with": "salmon DNA 0.4 mg/ml", "baseline": "random background probes", "reading": "higher = stronger binding", "constant ends, left off below": "GCCTAGCAC … GTCTTGATTCGCTTGACGCTGCTG"}
{"Strand": "GACTGTTTCGGTATCGGGACGTGCTAG", "fitted relative affinity": "7.74 z-score"}
{"Strand": "TTAGAACTGGGTCTCGGTTAGTGCTAG", "fitted relative affinity": "1.32 z-score"}
{"Strand": "GACAATTTCGGGACTGGAGACGTGCTA", "fitted relative affinity": "0.404 z-score"}
{"Strand": "TATGGTTTTTTTTTAATTGAGTGCTAG", "fitted relative affinity": "1.39 z-score"}
{"Strand": "GACGGTCTCGTTATCGGGACGTGCTAG", "fitted relative affinity": "1.49 z-score"}
{"Strand": "TTAGGTTTCGTACTGGGTTAGTGCTAG", "fitted relative affinity": "6.23 z-score"}
{"Strand": "GACGGACTCGACTTTCGGGACGTGCTA", "fitted relative affinity": "0.414 z-score"}
{"Strand": "GACGGTCTCGGTATCGGGAGGTGCTAG", "fitted relative affinity": "4.66 z-score"}
{"Strand": "GACGGATTGGACTTTCGGGACGTGCTA", "fitted relative affinity": "0.569 z-score"}
{"Strand": "AGAGTCACCCATCTCAACAAGTGCTAG", "fitted relative affinity": "0.354 z-score"}
{"Strand": "ATAGGTTCCCTTTTCCTTTAGTGCTAG", "fitted relative affinity": "0.775 z-score"}
{"Strand": "TGTAGTGTGTGTCTGATTATGTGCTAG", "fitted relative affinity": "0.64 z-score"}
{"Strand": "TTAGGTTTCAGTCTCGGTTAGTGCTAG", "fitted relative affinity": "8.06 z-score"}
{"Strand": "TCCACTTTGACTTAAGAGGCGTGCTAG", "fitted relative affinity": "-0.355 z-score"}
{"Strand": "TTAGGTTTCGACTATCGCTTAGTGCTA", "fitted relative affinity": "9.46 z-score"}
{"Strand": "TCAAGTTTGTAAATCTTACTGTGCTAG", "fitted relative affinity": "-0.403 z-score"}
{"Strand": "TTAGGTCTCCTTTTCCTGTAGTGCTAG", "fitted relative affinity": "0.77 z-score"}
{"Strand": "TTAGAATTGGGGTATCGATTAGTGCTA", "fitted relative affinity": "3 z-score"}
{"Strand": "TTAGATTCCAGTTTCGATCAGTGCTAG", "fitted relative affinity": "8.33 z-score"}
{"Strand": "TTAGTACTGGGTTTCGGTTAGTGCTAG", "fitted relative affinity": "6.87 z-score"}
{"Strand": "GAAATTCTCATTTCCAATTAGTGCTAG", "fitted relative affinity": "1.59 z-score"}
{"Strand": "TCAGTCCTCCTGACTGGGACTGTGCTA", "fitted relative affinity": "-0.321 z-score"}
{"Strand": "TTGTATCTGGGTTCCCCCCCGTGCTAG", "fitted relative affinity": "0.165 z-score"}
{"data": "Set 4", "target": "CCNB2, cyclin fold, Cln2 fusion (human)", "method": "yeast growth competition, sequencing", "medium": "yeast", "notes": "weak parent motif", "baseline": "not given", "reading": "higher = stronger binding", "starting sequence": "RBL2 docking peptide (human); STTRRRLFVENDS"}
{"Change": "S13H", "normalised enrichment score": 0.0964}
{"Change": "D12Y", "normalised enrichment score": 0.47}
{"Change": "L7T", "normalised enrichment score": 0.207}
{"Change": "R4D", "normalised enrichment score": -1.06}
{"Change": "E10P", "normalised enrichment score": 0.465}
{"Change": "R5Q", "normalised enrichment score": 0.755}
{"Change": "D12H", "normalised enrichment score": 0.49}
{"Change": "L7I", "normalised enrichment score": 0.425}
{"Change": "S1E", "normalised enrichment score": -0.0788}
{"Change": "F8E", "normalised enrichment score": -0.0127}
{"Change": "N11Y", "normalised enrichment score": 0.495}
{"Change": "D12E", "normalised enrichment score": -0.033}
{"Change": "E10R", "normalised enrichment score": 0.0477}
{"Change": "D12V", "normalised enrichment score": 0.0767}
{"Change": "S13P", "normalised enrichment score": 0.547}
{"Change": "S1K", "normalised enrichment score": 0.0983}
{"Change": "D12I", "normalised enrichment score": 0.751}
{"Change": "N11G", "normalised enrichment score": 0.804}
{"Change": "R5N", "normalised enrichment score": 0.0548}
{"Change": "E10C", "normalised enrichment score": 0.191}
{"Change": "F8A", "normalised enrichment score": 0.00227}
{"Change": "E10W", "normalised enrichment score": 0.0412}
{"Change": "T2C", "normalised enrichment score": 0.154}
{"Change": "T3Q", "normalised enrichment score": 0.0942}
{"Change": "R5A L7A", "normalised enrichment score": 0.0992}
{"data": "Mixed results"}
{"Substance": "PhoQ, residues 284 288 289 292 302 303 SSTLSG", "target": "PhoP, residues 12 14 15 18 19 NIMAP (Escherichia coli, UniProt P23836)", "test": "Sort-seq, measured: YFP reporter", "system": "E. coli", "setting": "PhoQ-PhoP variant library, with: 10 µM Mg2+", "how to read": "baseline: high Mg2+ state, higher = stronger signaling", "endpoint": "fold induction", "result": 0.754}
{"note": "For quick reference, copied from above (set 1):"}
{"Strand": "ACTACGCG", "E-score": -0.117}
{"Strand": "ACAATGTC", "E-score": 0.0619}
{"Strand": "ATAACCAG", "E-score": 0.248}
{"Strand": "ACGTTCAT", "E-score": 0.149}
{"Strand": "TTTGAAAA", "E-score": 0.34}
{"Strand": "CGAAGAGC", "E-score": -0.143}
{"Strand": "AGGCTACA", "E-score": -0.0869}
{"Strand": "CGCTGACC", "E-score": -0.133}
{"Strand": "AAAGGCAC", "E-score": -0.0107}
{"Strand": "CACGGGCG", "E-score": -0.335}
{"Strand": "AGGTGGTA", "E-score": 0.052}
{"Strand": "CGACTACC", "E-score": -0.231}
{"Strand": "CATCCAAA", "E-score": 0.00466}
